Published values pooled from the literature.
Compare with care: the assays were run in different laboratories. Values joined by “and” are separate records of one study, mostly repeats; a detail may differ. ± marks the error that the study gave. Values after ≈ are worked out from the molar mass of the structure shown.

SMILES = CN(CCCN1CCN(C(=O)CN2CCN(CC(=O)[O-])CCN(CC(=O)[O-])CCN(CC(=O)[O-])CC2)CC1)c1ccc2nccc(C(=O)NCC(=O)N3CC(F)(F)C[C@H]3C#N)c2c1.[68Ga+3]; test system = mice, HT-1080.hFAP and HT-1080 wild-type xenografts, pancreas; setting = iv, 500 pmol, 1 h post injection; measurement = uptake; value = 0.2 ± 0.1 %IA/g
SMILES = CNCc1ccc(-c2[nH]c3cc(F)cc4c3c2CCNC4=O)cc1; test system = human patients; setting = oral, 240 mg twice daily, all grades; measurement = diarrhoea incidence; value = 33.3%
SMILES = C=CC[C@@H]1/C=C(\C)C[C@H](C)C[C@H](OC)[C@H]2O[C@@](O)(C(=O)C(=O)N3CCCC[C@H]3C(=O)O[C@H](/C(C)=C/[C@@H]3CC[C@@H](O)[C@H](OC)C3)[C@H](C)[C@@H](O)CC1=O)[C@H](C)C[C@@H]2OC; test system = kidney transplant recipients, CYP3A5*3/*3 carriers, poor metabolisers, whole blood; setting = oral, dose not given, limited sampling; measurement = dose-normalized AUC(0-12h); value = 151 ng·h/mL
SMILES = COc1ccc2c(c1)CN(C(=O)CCN1CCC(Cc3ccccc3)CC1)CC[S@@+]2[O-]; test = telemetry; test system = conscious male beagle dogs; setting = intravenous, 8 mg/kg, 2 h; measurement = QT interval; value = 242 ± 24 ms
SMILES = CC[C@H](C)C(=O)O[C@H]1C[C@@H](C)C=C2C=C[C@H](C)[C@H](CC[C@@H]3C[C@@H](O)CC(=O)O3)[C@H]21; test system = dog, Beagle, both sexes, whole blood; setting = 5 µM, 60 min; measurement = remaining compound; value = 86%
SMILES = COc1ncc(-c2nc3c(n2C(C)C)[C@H](c2ccc(Cl)cc2)N(c2cc(Cl)cn(C)c2=O)C3=O)c(OC)n1; test system = human patients, plasma; setting = oral, 2 mg, cycle 1 day 14; measurement = geometric mean AUC(0-last); value = 0.109 µg·h/mL
SMILES = O=S(=O)(NCc1ccccn1)c1cc(Cl)c(Cl)cc1Cl; tested on = CDK2 (Homo sapiens, UniProt P24941); test = binding; measurement = Kd; value = > 100 µM
SMILES = C=CC(=O)NC1CCN(c2ncc3ncnc(Nc4ccc(Oc5ccc6c(c5)ncn6C)c(C)c4)c3n2)CC1; test = measured: total radioactivity; test system = healthy male human, whole blood and plasma; setting = oral, 60 mg, 2 h, geometric mean; measurement = blood-to-plasma ratio; value = 0.746
SMILES = N#Cc1ccc(C(c2ccc(C#N)cc2)n2cncn2)cc1; test system = human patients, tumour tissue at surgery; setting = 10 mg daily; measurement = tumour concentration; value = 90 ± 17.7 ng/g
SMILES = CCCCC1=NC2(CCCC2)C(=O)N1Cc1ccc(-c2ccccc2S(=O)(=O)Nc2noc(C)c2C)c(COCC)c1; test system = healthy adult volunteers, plasma; setting = oral, 400 mg, single dose, fasted, crushed tablet; measurement = Tmax; value = 3.5 h
SMILES = N#Cc1ccc2c(c1)[C@H]1CCCN(C(=O)c3ccc4[nH]cnc4c3)[C@H]1C2; test system = human, male; setting = 360 mg, day 7; measurement = DHEA-S level; value = 4.7 µmol/L
SMILES = O=C(O)CCCOc1ccc(F)cc1-c1cc(-c2ccccc2C(F)(F)F)n(-c2ccccc2)n1; test system = Crl:CD(SD) rat, female, serum; setting = iv, 25 µg/kg, 1 day; measurement = chloride; value = 107 ± 1.3 mEq/L
SMILES = Cc1ccc([C@@H]2O[C@H](CO)[C@@H](O)[C@H](O)[C@H]2O)cc1Cc1ccc(-c2ccc(F)cc2)s1; test system = Japanese type 2 diabetes patients; setting = 25 mg, day 1, 24 h urine collection; scale = reference: baseline; measurement = urinary magnesium excretion change; value = -9.78 mg
SMILES = O=C(Nc1cnccc1Cl)N1CCN(Cc2ccc3c(c2)OC(F)(F)O3)CC1; test system = young men, plasma; setting = oral, 25 mg once daily, day 10, normalized to 10 mg; measurement = dose-normalized Cmax; value = 0.09 µg/mL
SMILES = CC(C)C[C@H](NC(=O)C[C@H](O)[C@H](CC(C)C)NC(=O)[C@H](Cc1c[nH]cn1)NC(=O)CNC(=O)[C@@H](NC(=O)[C@H](C)NC(=O)[C@H](Cc1c[nH]c2ccccc12)NC(=O)[C@H](CCC(N)=O)NC(=O)[C@@H](Cc1ccccc1)NC(=O)COCCOCCNC(=O)CN1CCN(CC(=O)O)CCN(CC(=O)O)CCN(CC(=O)O)CC1)C(C)C)C(N)=O [lutetium-177 labelled]; test system = female BALB/c nu/nu mice, intestines; setting = intravenous, 50 pmol, 24 h; measurement = tissue uptake; value = 0.014 ± 0.006 %ID/g
SMILES = O=C(O)CCC(=O)O.[2H]C([2H])([2H])Oc1cc(C)c2[nH]ccc2c1CN1CC[C@@H](C2CC2)C[C@H]1c1ccc(C(=O)O)cc1; test system = healthy Chinese subjects; setting = 100 mg, single ascending dose; measurement = TEAE urine leukocyte positive; value = 16.7%
SMILES = CCc1cc(C(=O)NC)c2nccc(N3CCc4c(cc(Cn5ccnc5)cc4-c4cn(C)nc4C(F)(F)F)C3=O)c2c1; test system = Sprague Dawley rat; setting = oral, 50 mg/kg once daily, 7 days; scale = reference: vehicle; measurement = liver weight change; value = 0.78%
SMILES = CC(C)(C(=O)N1CCOc2c(C#N)cncc2C1)C(F)F; test system = human, both sexes; setting = oral, 40 mg single dose; measurement = subjects with tachycardia TEAE; value = 0%
SMILES = Cc1cc(Nc2ccc(S(F)(F)(F)(F)F)cc2)n2nc(C(C)(F)F)nc2n1; test system = Plasmodium vivax malaria patients; setting = oral, 800 mg; measurement = adverse event Diarrhoea; value = 28.6%
SMILES = CCCCOC(=O)N1CCN(C(=O)[C@H](CP(=O)(O)O)NC(=O)c2cc(N3CC[C@H](OC)C3)nc(-c3ccccc3)n2)CC1; test = measured: haemoglobin; test system = human, blood; setting = 8 mg, 24 h post-dose; measurement = change from baseline; value = -1.1 ± 7.2 g/L
SMILES = CNC(=O)c1ccc(-c2cnc3ncc(Cc4ccc5ncccc5c4)n3n2)cc1F; test system = Japanese patients; setting = oral, 400 mg, any grade; measurement = blood bilirubin increased dose reduction/interruption; value = 1%
SMILES = Cc1cc(-c2nnc(N)nc2-c2ccc(F)cc2)cc(Cl)n1; test = measured: Fatigue; test system = human phase Ia/Ib NSCLC, post-immunotherapy; setting = oral, 100 mg once daily; measurement = patients with treatment-related adverse events; value = 17.6%
SMILES = NS(=O)(=O)c1cc(C(=O)O)c(NCc2ccco2)cc1Cl; test = measured: general and administration site disorders; test system = healthy men; setting = oral, 8 days, treatment-emergent, crossover trial; measurement = subjects with adverse event; value = 0%
SMILES = O=[N+]([O-])c1cn2c(n1)OC[C@@H](OCc1ccc(N3CCSCC3)c(F)c1)C2; test system = aqueous buffer; setting = pH 7.4; measurement = aqueous solubility; value = 4.2 µg/mL (≈ 10.6 µM)
SMILES = Nc1ncn([C@H]2C[C@H](O)[C@@H](CO)O2)c(=O)n1; test system = mouse plasma; setting = 1.2 ng/mL, 3 months, -80 °C, long-term stability, no THU; measurement = mean deviation from nominal; value = 12.9%
SMILES = COc1cc2nccc(Oc3ccc(NC(=O)c4cc5c(n(-c6ccccc6)c4=O)CCCC5=O)nc3)c2cc1OC; test system = relapsed or refractory AML; setting = oral, 10 mg once daily; measurement = grade ≥3 Hyperkalaemia patients; value = 0%
SMILES = CCN1/C(=C/C(C)=O)Sc2ccc(F)cc21; test system = cynomolgus monkey; setting = oral, 10 mg/kg, 1 h post-dose; scale = reference: pre-dose; measurement = mean blood pressure change; value = 102 ± 8.1%
SMILES = O=C(c1cccnc1-c1ccncc1)N1CCC(O)(Cc2ccccc2)CC1; test system = healthy Japanese adults, plasma; setting = oral, 300 mg twice daily, day 21; measurement = terminal half-life; value = 2.93 h
SMILES = [18F]c1ccc(-c2ccc3c(c2)[nH]c2ccncc23)cn1; test = microPET/CT imaging; test system = APP/PS1 mouse, AD model, brain; setting = intravenous, 5 min; measurement = SUV; value = 1.6 ± 0.499
SMILES = CC#CC(=O)N1CCC[C@H]1c1nc(-c2ccc(C(=O)Nc3ccccn3)cc2)c2c(N)nccn12; test = noncompartmental analysis; test system = human, severe impairment, plasma; setting = oral, 50 mg, geometric mean; measurement = unbound AUC(0-t); value = 0.0115 µg·h/mL
SMILES = C[C@@H]1CCO[C@H]2Cn3cc(C(=O)NCc4ccc(F)cc4F)c(=O)c(O)c3C(=O)N12; test system = human, body weight 25 to <30 kg, plasma; setting = oral, 50 mg, film-coated tablet, steady state; measurement = Cmax; value = 5.21 µg/mL
SMILES = CCCn1cc(C)c2c(=O)[nH]c(-c3cc(S(=O)(=O)N4CCN(CC)CC4)ccc3OCC)nc21; test system = human; setting = concentration not given, treatment-emergent adverse event; measurement = blood triglycerides increased; value = 16.7%
SMILES = O=C(O)CCCOc1ccc([18F])cc1-c1cc(-c2ccccc2C(F)(F)F)n(-c2ccccc2)n1; test = gamma counting; test system = male ddY mice, spleen; setting = intravenous, 2.1 MBq, 60 min; measurement = radioactivity uptake; value = 0.11 ± 0.05 SUV
SMILES = CNCCOC12CC3(C)CC(C)(CC(Cn4ncc(-c5ccc(N6CCc7cccc(C(=O)Nc8nc9ccccc9s8)c7C6)nc5C(=O)O)c4C)(C3)C1)C2; test system = beagle dog, male, anaesthetised; setting = intravenous bolus, 0.03 mg/kg, 135 min; scale = reference: baseline; measurement = mean arterial pressure change; value = -8%
SMILES = C[C@H](CCC(=O)NCCS(=O)(=O)O)[C@H]1CC[C@H]2[C@@H]3CC[C@@H]4C[C@H](O)CC[C@]4(C)[C@H]3C[C@H](O)[C@]12C; test system = human, plasma; setting = endogenous baseline diurnal; scale = reference: daily mean concentration; measurement = relative peak deviation; value = 214 ± 20%
SMILES = C[C@H]1CN(C(=O)CC#N)[C@]12CCN(c1ncnc3[nH]ccc13)C2; test system = human; setting = oral, dose not given, all compound groups; measurement = participants with treatment-related TEAEs; value = 12.5%
SMILES = COc1ccc(NC(=O)CSc2nnc(-c3ccncc3)[nH]2)cc1; tested on = Cyclin-dependent kinase 2, with cyclin A (CDK2, Homo sapiens, UniProt P24941); measurement = Kd; value = > 100 µM
SMILES = Cc1cccc(CNC(=O)c2cn(CCNC(=O)c3ccccc3Sc3c([N+](=O)[O-])ncn3C)c3cc4c(cc3c2=O)OC(F)(F)O4)n1; test system = Sprague-Dawley rat, male, plasma; setting = intravenous, 5 mg/kg of parent compound; measurement = half-life; value = 1.81 ± 0.12 h
SMILES = CCc1c(-c2ccccc2)c(-c2ccccc2)nn1-c1ccccc1-c1cccc(OCC(=O)O)c1; test system = Sprague-Dawley rat, plasma; setting = oral, 10 mg/kg, 1 h; measurement = concentration; value = 4.9 µg/mL and 2.63 µg/mL
SMILES = CCN1CCN(Cc2ccc(NC(=O)c3ccc(C)c(NC(=O)c4cncc(-c5cccs5)c4)c3)cc2C(F)(F)F)CC1; test system = C57BL/6 mice, epithelial lining fluid; setting = intraperitoneal, 20 mg/kg; measurement = dose-normalised AUC; value = 0.33 kg·µg·h/mL/mg
SMILES = C[C@@H](NC(=O)N1C(=O)[C@H](Cc2ccnc(N)c2)[C@H]1C(=O)O)C1CCCCC1; test = UPLC-MS/MS; test system = healthy adult Chinese volunteers, plasma; setting = continuous intravenous infusion, 2.25 mg/kg/h, day 6 of 5-day infusion, mean; measurement = elimination rate constant; value = 0.000139 s⁻¹
SMILES = CN(C(=O)n1cnc(-c2cccnc2)c1)[C@H]1CC[C@H](O)CC1; test system = Wistar rat, midbrain; setting = oral, 10 mg/kg/day of BIA 10-2474, 4 h, repeated 5 days; measurement = concentration; value = 42.7 ± 7.4 ng/g
SMILES = Cn1cc(-c2ccc(-c3cncc(Cl)c3N3CCC4(CCNC4=O)CC3)cc2)cn1; tested on = COLO 205; test = microarray, measured: E2F1; setting = concentration not given, 6 h; scale = reference: untreated cells; measurement = fold change in expression; value = -1.85

Repeated from above:
SMILES = CCCCC1=NC2(CCCC2)C(=O)N1Cc1ccc(-c2ccccc2S(=O)(=O)Nc2noc(C)c2C)c(COCC)c1; test system = healthy adult volunteers, plasma; setting = oral, 400 mg, single dose, fasted, crushed tablet; measurement = Tmax; value = 3.5 h
SMILES = N#Cc1ccc2c(c1)[C@H]1CCCN(C(=O)c3ccc4[nH]cnc4c3)[C@H]1C2; test system = human, male; setting = 360 mg, day 7; measurement = DHEA-S level; value = 4.7 µmol/L
SMILES = O=C(O)CCCOc1ccc(F)cc1-c1cc(-c2ccccc2C(F)(F)F)n(-c2ccccc2)n1; test system = Crl:CD(SD) rat, female, serum; setting = iv, 25 µg/kg, 1 day; measurement = chloride; value = 107 ± 1.3 mEq/L
SMILES = Cc1ccc([C@@H]2O[C@H](CO)[C@@H](O)[C@H](O)[C@H]2O)cc1Cc1ccc(-c2ccc(F)cc2)s1; test system = Japanese type 2 diabetes patients; setting = 25 mg, day 1, 24 h urine collection; scale = reference: baseline; measurement = urinary magnesium excretion change; value = -9.78 mg
SMILES = O=C(Nc1cnccc1Cl)N1CCN(Cc2ccc3c(c2)OC(F)(F)O3)CC1; test system = young men, plasma; setting = oral, 25 mg once daily, day 10, normalized to 10 mg; measurement = dose-normalized Cmax; value = 0.09 µg/mL
